Results pooled from the literature.
Numbers after ± are the reported error.
Sequence of UniProt P20813 (whole entry, looked up): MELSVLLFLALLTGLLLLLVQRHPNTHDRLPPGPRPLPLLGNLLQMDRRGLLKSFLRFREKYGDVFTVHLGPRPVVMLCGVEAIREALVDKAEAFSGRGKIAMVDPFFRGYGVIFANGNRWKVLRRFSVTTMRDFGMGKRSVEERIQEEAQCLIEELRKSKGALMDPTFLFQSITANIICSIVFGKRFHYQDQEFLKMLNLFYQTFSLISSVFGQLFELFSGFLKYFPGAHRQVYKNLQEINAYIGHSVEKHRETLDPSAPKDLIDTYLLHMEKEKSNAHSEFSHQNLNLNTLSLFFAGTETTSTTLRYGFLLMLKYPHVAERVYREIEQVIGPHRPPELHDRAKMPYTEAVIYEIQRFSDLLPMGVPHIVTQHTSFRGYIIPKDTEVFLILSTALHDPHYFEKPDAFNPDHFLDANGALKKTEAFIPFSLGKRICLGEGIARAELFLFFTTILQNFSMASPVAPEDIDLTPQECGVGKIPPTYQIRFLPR
Sequence of UniProt Q15858 (whole entry, looked up): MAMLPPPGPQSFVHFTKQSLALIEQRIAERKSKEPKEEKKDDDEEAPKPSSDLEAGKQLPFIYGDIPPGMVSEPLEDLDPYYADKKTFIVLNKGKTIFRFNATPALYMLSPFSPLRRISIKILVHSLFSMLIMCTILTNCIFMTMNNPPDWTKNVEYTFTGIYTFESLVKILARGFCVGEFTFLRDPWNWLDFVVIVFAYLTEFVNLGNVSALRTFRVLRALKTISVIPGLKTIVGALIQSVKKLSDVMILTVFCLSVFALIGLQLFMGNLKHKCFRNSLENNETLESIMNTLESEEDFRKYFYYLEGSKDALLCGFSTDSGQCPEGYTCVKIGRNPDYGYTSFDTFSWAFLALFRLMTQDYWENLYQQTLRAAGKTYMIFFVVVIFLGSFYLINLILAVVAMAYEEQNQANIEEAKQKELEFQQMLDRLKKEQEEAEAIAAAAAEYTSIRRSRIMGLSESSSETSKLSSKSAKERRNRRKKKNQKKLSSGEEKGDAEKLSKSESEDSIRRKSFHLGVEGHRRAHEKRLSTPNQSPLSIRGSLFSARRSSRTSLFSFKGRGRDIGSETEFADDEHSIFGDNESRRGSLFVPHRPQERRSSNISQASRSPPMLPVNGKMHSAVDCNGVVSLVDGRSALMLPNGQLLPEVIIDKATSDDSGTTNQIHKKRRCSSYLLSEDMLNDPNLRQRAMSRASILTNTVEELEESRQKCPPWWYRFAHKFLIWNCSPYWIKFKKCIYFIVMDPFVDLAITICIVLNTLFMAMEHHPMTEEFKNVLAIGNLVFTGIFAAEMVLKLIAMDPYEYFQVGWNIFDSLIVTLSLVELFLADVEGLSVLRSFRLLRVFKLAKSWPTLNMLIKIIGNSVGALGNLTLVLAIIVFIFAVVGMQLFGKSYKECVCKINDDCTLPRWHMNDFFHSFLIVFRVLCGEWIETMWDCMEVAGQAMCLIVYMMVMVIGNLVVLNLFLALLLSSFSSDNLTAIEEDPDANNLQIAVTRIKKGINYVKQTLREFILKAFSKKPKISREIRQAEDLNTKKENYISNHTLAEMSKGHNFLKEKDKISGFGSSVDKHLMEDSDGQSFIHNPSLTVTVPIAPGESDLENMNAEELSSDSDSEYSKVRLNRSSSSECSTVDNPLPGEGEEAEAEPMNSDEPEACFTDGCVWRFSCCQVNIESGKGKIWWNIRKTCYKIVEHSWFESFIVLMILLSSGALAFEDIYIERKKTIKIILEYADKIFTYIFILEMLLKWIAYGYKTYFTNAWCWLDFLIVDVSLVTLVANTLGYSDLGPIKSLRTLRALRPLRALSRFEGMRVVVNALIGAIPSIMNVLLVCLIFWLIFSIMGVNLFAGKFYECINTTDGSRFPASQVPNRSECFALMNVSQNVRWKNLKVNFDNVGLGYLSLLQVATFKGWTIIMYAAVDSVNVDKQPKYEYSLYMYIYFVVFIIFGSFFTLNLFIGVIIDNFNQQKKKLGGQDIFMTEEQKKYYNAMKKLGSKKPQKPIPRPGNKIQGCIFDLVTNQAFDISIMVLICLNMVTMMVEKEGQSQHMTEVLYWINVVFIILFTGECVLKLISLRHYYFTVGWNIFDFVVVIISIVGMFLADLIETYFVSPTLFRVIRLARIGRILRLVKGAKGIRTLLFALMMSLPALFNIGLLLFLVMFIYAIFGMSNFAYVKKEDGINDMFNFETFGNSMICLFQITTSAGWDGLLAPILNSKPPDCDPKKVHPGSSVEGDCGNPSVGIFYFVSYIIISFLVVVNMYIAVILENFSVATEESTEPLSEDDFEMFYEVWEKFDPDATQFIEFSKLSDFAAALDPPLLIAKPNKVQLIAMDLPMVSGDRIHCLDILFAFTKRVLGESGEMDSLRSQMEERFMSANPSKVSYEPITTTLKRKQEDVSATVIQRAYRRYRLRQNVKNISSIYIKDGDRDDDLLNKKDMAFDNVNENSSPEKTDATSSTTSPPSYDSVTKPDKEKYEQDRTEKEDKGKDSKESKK
Sequence of UniProt O96017 (whole entry, looked up): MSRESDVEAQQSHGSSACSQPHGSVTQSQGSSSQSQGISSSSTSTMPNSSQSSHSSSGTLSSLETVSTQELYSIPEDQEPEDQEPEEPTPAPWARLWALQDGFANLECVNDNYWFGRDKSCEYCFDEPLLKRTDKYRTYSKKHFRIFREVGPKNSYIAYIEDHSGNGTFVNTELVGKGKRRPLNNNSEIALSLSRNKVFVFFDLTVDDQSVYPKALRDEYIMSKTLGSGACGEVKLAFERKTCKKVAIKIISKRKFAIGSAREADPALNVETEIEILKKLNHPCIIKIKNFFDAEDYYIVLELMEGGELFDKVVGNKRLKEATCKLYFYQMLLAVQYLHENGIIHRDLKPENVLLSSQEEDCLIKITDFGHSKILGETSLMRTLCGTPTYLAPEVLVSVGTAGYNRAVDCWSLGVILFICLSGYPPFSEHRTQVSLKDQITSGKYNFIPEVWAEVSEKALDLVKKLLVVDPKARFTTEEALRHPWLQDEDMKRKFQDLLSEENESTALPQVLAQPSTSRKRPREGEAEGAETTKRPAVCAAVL

The tissue uptake of `N=C(N)NCCC[C@@H]1NC(=O)[C@H](CCCCNC(=O)CCOCCOCCOCCOCCNC(=O)CN2CCN(CC(=O)O)CCN(CC(=O)O)CCN(CC(=O)O)CC2)NC(=O)[C@@H](Cc2ccccc2)NC(=O)[C@H](CC(=O)O)NC(=O)CNC1=O` [indium-111 labelled] is reported as 2.8 ± 0.29 %ID/g (female athymic nude mice, kidney; intravenous, 3 µCi, 4 h, U-87 MG glioma xenograft).
For `COC(=O)C1=CO[C@@H](O)[C@@H]2C(Cn3cc(CN4C(=O)c5ccccc5C4=O)nn3)=CC[C@H]12`, the viability was 72.7 ± 1.5% (SK-N-SH; neuroprotection, MTT; 0.15 µM, 24 h, with: 250 µM H2O2).
With `N=C(N)NCCC[C@@H]1NC(=O)[C@H](CCCCNC(=O)CNC(=O)CNC(=O)CNC(=O)CC[C@H](NC(=O)c2ccc(NN=Cc3ccccc3S(=O)(=O)O)nc2)C(=O)NCC(=O)NCC(=O)NCC(=O)NCCCC[C@@H]2NC(=O)[C@@H](Cc3ccccc3)NC(=O)[C@H](CC(=O)O)NC(=O)CNC(=O)[C@H](CCCNC(=N)N)NC2=O)NC(=O)[C@@H](Cc2ccccc2)NC(=O)[C@H](CC(=O)O)NC(=O)CNC1=O` [technetium-99m labelled] the tissue uptake was 11 ± 2.34 %ID/g (athymic nu/nu mouse, female, U-87 MG glioma xenograft, tumour; intravenous, 2 µCi, 60 min).
`CCCCCc1cc(O)c2c(c1)OC(C)(C)C1CCC(C)=CC21` (single isomer, unassigned; (-)) has an IC50 of 19 ± 5.1 µM (Cytochrome P450 2B6 (CYP2B6, Homo sapiens, UniProt P20813); inhibitor; HEK cell microsomes; 30 min preincubation without NADPH).
With `CC(=O)NC(Cc1ccc(Br)c(Cl)c1)C(=O)N[C@@H](C)C(=O)N1CCC[C@H]1C(=O)N1CCC[C@H]1C(=O)N[C@@H](CCC(=O)O)C(=O)N[C@@H](Cc1c[nH]cn1)C(=O)N[C@@H](CO)C(=O)N[C@H](C(=O)N[C@@H](C)C(N)=O)[C@@H](C)OP(=O)(O)O` (stereo partly drawn) the inhibition was 0.07% (CHEK2 (Homo sapiens, UniProt O96017); enzyme activity, inhibitor; 10 µM).
`N=C(N)NCCC[C@@H]1NC(=O)[C@H](CCCCNC(=O)CNC(=O)CNC(=O)CNC(=O)CC[C@H](NC(=O)CCOCCOCCOCCOCCNC(=O)CC[C@H](NC(=O)CN2CCN(CC(=O)O)CCN(CC(=O)O)CCN(CC(=O)O)CC2)C(=O)NCCOCCOCCOCCOCCC(=O)N[C@@H](CCC(=O)NCC(=O)NCC(=O)NCC(=O)NCCCC[C@@H]2NC(=O)[C@@H](Cc3ccccc3)NC(=O)[C@H](CC(=O)O)NC(=O)CNC(=O)[C@H](CCCNC(=N)N)NC2=O)C(=O)NCC(=O)NCC(=O)NCC(=O)NCCCC[C@@H]2NC(=O)[C@@H](Cc3ccccc3)NC(=O)[C@H](CC(=O)O)NC(=O)CNC(=O)[C@H](CCCNC(=N)N)NC2=O)C(=O)NCC(=O)NCC(=O)NCC(=O)NCCCC[C@@H]2NC(=O)[C@@H](Cc3ccccc3)NC(=O)[C@H](CC(=O)O)NC(=O)CNC(=O)[C@H](CCCNC(=N)N)NC2=O)NC(=O)[C@@H](Cc2ccccc2)NC(=O)[C@H](CC(=O)O)NC(=O)CNC1=O` [indium-111 labelled] gave a tissue uptake of 0.04 ± 0.01 %ID/g (female athymic nude mice, brain; intravenous, 3 µCi, 24 h, U-87 MG glioma xenograft).
`CCN(Cc1ccccc1)C(=O)CCc1nc(CN2CCN(C(=O)Cc3ccc(OC)c(OC)c3)CC2)no1` — result for “V1/2 of activation”: -35.8 ± 1.64 mV (SCN9A (Homo sapiens, UniProt Q15858); whole-cell patch clamp; HEK stable; 100 nM).
With `CCCC[C@H](NC(=O)CNC(=O)CNC(=O)c1ccc(NN)nc1)C(=O)N[C@H]1CC(=O)NCCCC[C@@H](C(N)=O)NC(=O)[C@H](Cc2c[nH]c3ccccc23)NC(=O)[C@H](CCCNC(=N)N)NC(=O)[C@@H](Cc2ccccc2)NC(=O)[C@H](Cc2c[nH]cn2)NC1=O` [technetium-99m labelled] the tissue uptake was 1.15 ± 0.08 %ID/g (C57 mouse, B16/F1 melanoma-bearing, liver; intravenous, 0.5 h).
For `C[C@@H](NC(=O)[C@@H](CCC(N)=O)NC(=O)[C@@H](C)NC(=O)[C@@H](CCCCN)NC(=O)[C@@H](CCC(N)=O)NC(=O)[C@@H](C)NC(=O)[C@@H](CCCCN)NC(=O)[C@@H](CCC(N)=O)NC(=O)[C@@H](C)NC(=O)[C@@H](CCC(N)=O)NC(=O)[C@@H](CCCCN)NC(=O)[C@@H](C)NC(=O)[C@@H](CCC(N)=O)NC(=O)[C@@H](CCCCN)NC(=O)[C@@H](C)NC(=O)[C@@H](CCC(N)=O)NC(=O)[C@@H](C)NC(=O)[C@@H](CCCCN)NC(=O)[C@@H](CCC(N)=O)NC(=O)[C@@H](C)NC(=O)[C@@H](CCCCN)NC(=O)[C@@H](CO)NC(=O)[C@@H](Cc1ccc(O)cc1)NC(=O)CNC(=O)CNC(=O)CN)C(=O)N[C@H](CCCCN)C(=O)N[C@H](CCC(N)=O)C(=O)N[C@H](C)C(=O)N[C@H](CCCCN)C(=O)N[C@H](CCC(N)=O)C(=O)O`, the Kd was 0.0054 µM (binding, SPR Langmuir fit; rVλ6Wil fibrils; pH 7.4).
For `CCCC[C@H](NC(=O)CCCCCCCNC(=O)c1ccc(NN)nc1)C(=O)N[C@H]1CC(=O)NCCCC[C@@H](C(N)=O)NC(=O)[C@H](Cc2c[nH]c3ccccc23)NC(=O)[C@H](CCCNC(=N)N)NC(=O)[C@@H](Cc2ccccc2)NC(=O)[C@H](Cc2c[nH]cn2)NC1=O` [technetium-99m labelled], the tissue uptake was 96.8 ± 1.17 %ID (C57 mouse, B16/F1 melanoma, urine; intravenous, 0.037 MBq, 24 h).
The tissue uptake of `N=C(N)NCCC[C@@H]1NC(=O)[C@H](CC(=O)NC23CNCCNCC(N)(CNCCNC2)CNCCNC3)NC(=O)[C@@H](Cc2ccccc2)NC(=O)[C@H](CC(=O)O)NC(=O)CNC1=O` [copper-64 labelled] is reported as 0.56 ± 0.09 %ID/g (Nu/Nu mouse, male, tumour-bearing, heart; intravenous, 10 µCi, 1 h).
For `N=C(N)NCCC[C@@H]1NC(=O)[C@H](CCCCNC(=O)CCOCCOCCOCCOCCNC(=O)CC[C@H](NC(=O)CCOCCOCCOCCOCCNC(=O)CC[C@H](NC(=O)CN2CCN(CC(=O)O)CCN(CC(=O)O)CCN(CC(=O)O)CC2)C(=O)NCCOCCOCCOCCOCCC(=O)N[C@@H](CCC(=O)NCCOCCOCCOCCOCCC(=O)NCCCC[C@@H]2NC(=O)[C@@H](Cc3ccccc3)NC(=O)[C@H](CC(=O)O)NC(=O)CNC(=O)[C@H](CCCNC(=N)N)NC2=O)C(=O)NCCOCCOCCOCCOCCC(=O)NCCCC[C@@H]2NC(=O)[C@@H](Cc3ccccc3)NC(=O)[C@H](CC(=O)O)NC(=O)CNC(=O)[C@H](CCCNC(=N)N)NC2=O)C(=O)NCCOCCOCCOCCOCCC(=O)NCCCC[C@@H]2NC(=O)[C@@H](Cc3ccccc3)NC(=O)[C@H](CC(=O)O)NC(=O)CNC(=O)[C@H](CCCNC(=N)N)NC2=O)NC(=O)[C@@H](Cc2ccccc2)NC(=O)[C@H](CC(=O)O)NC(=O)CNC1=O` [indium-111 labelled], the tissue uptake was 1.12 ± 0.15 %ID/g (athymic nude mice, female, U-87 MG glioma xenograft, spleen; intravenous, 3 µCi, 72 h).
The tissue uptake of `CSCC[C@H](NC(=O)[C@H](CC(C)C)NC(=O)[C@H](Cc1c[nH]cn1)NC(=O)CNC(=O)[C@@H](NC(=O)[C@H](C)NC(=O)[C@H](Cc1c[nH]c2ccccc12)NC(=O)[C@H](CCC(N)=O)NC(=O)CNC(=O)[C@H](CO)NC(=O)CNC(=O)CCCCCCCNC(=O)CCC(=O)Nc1ccc(CNC23CNCCNCC(N)(CNCCNC2)CNCCNC3)cc1)C(C)C)C(N)=O` [copper-64 labelled] is reported as 52 ± 4.42 %ID/g (female SCID mice, PC-3 xenograft, pancreas; intravenous, 0.6 MBq, 1 h).
With `C[C@@H](O)[C@H](NC(=O)[C@@H]1CSSC[C@H](NC(=O)[C@@H](Cc2ccccc2)NC(=O)CN2CCCN3CCN(CCCN(CP(=O)(O)O)CC3)CC2)C(=O)N[C@@H](Cc2ccc(O)cc2)C(=O)N[C@H](Cc2c[nH]c3ccccc23)C(=O)N[C@@H](CCCCN)C(=O)N[C@@H]([C@@H](C)O)C(=O)N1)C(=O)O` [copper-64 labelled] the tissue uptake was 6 ± 0.1 %ID/g (Lewis rat, male, tumour-bearing, pancreas; injection, 4 h).
With `CSCC[C@H](NC(=O)[C@H](CC(C)C)NC(=O)[C@H](Cc1c[nH]cn1)NC(=O)CNC(=O)[C@@H](NC(=O)[C@H](C)NC(=O)[C@H](Cc1c[nH]c2ccccc12)NC(=O)[C@H](CCC(N)=O)NC(=O)CCCCCNC(=O)CNC(=O)CNC(=O)CNC(=O)CSC(C)=O)C(C)C)C(N)=O` [technetium-99m labelled] the tissue uptake was 0.11 ± 0.03 %ID/g (Swiss mouse, muscle; intravenous, 18.5 MBq, 30 min).
The tissue uptake of `N=C(N)NCCC[C@@H]1NC(=O)[C@H](CCCCNC(=O)CC[C@H](NC(=O)CCOCCOCCOCCOCCNC(=O)CC[C@H](NC(=O)CN2CCN(CC(=O)O)CCN(CC(=O)O)CCN(CC(=O)O)CC2)C(=O)NCCOCCOCCOCCOCCC(=O)N[C@@H](CCC(=O)NCCCC[C@@H]2NC(=O)[C@@H](Cc3ccccc3)NC(=O)[C@H](CC(=O)O)NC(=O)CNC(=O)[C@H](CCCNC(=N)N)NC2=O)C(=O)NCCCC[C@@H]2NC(=O)[C@@H](Cc3ccccc3)NC(=O)[C@H](CC(=O)O)NC(=O)CNC(=O)[C@H](CCCNC(=N)N)NC2=O)C(=O)NCCCC[C@@H]2NC(=O)[C@@H](Cc3ccccc3)NC(=O)[C@H](CC(=O)O)NC(=O)CNC(=O)[C@H](CCCNC(=N)N)NC2=O)NC(=O)[C@@H](Cc2ccccc2)NC(=O)[C@H](CC(=O)O)NC(=O)CNC1=O` [indium-111 labelled] is reported as 1.83 ± 0.7 %ID/g (female athymic nude mice, bone; intravenous, 3 µCi, 1 h, U-87 MG glioma xenograft).
The revertants of `CCC(=O)N(C)c1ccc(Cl)c(Cl)c1` is reported as 15 ± 4.7 revertants/plate (Salmonella typhimurium; Ames test; TA1535; 0.05 mg/plate, without S9 activation).
With `CCCC[C@H](NC(=O)COCCOCCNC(=O)c1ccc(NN)nc1)C(=O)N[C@H]1CC(=O)NCCCC[C@@H](C(N)=O)NC(=O)[C@H](Cc2c[nH]c3ccccc23)NC(=O)[C@H](CCCNC(=N)N)NC(=O)[C@@H](Cc2ccccc2)NC(=O)[C@H](Cc2c[nH]cn2)NC1=O` [technetium-99m labelled] the tissue uptake was 5.79 ± 1.79 %ID/g (C57 mouse, female, B16/F1 melanoma, kidneys; intravenous, 0.037 MBq, 2 h).
